Assay results gathered from unrelated publications.
Every numbered part comes from another study and shows a few of its results, in no order.

Sample 1
Target: Prothrombin, mature alpha-thrombin (F2, Homo sapiens, UniProt P00734)
Method: aptamer microarray, sandwich
Molecule type: DNA with 2'F-ANA
Medium: in vitro
Tested at: 200 nM
Notes: whole 15-mer aptamer, many near background
Together with: Cy3 exosite-II aptamer, 400 nM
Direction: higher = stronger binding
Oligonucleotide: GGTTGGTGTGGTTGG
`2'F-ANA at 1 4 6 11 12 15`: “mean fluorescence intensity” 179 a.u.
For `2'F-ANA at 1 3 4 7 8 10 11 12 13 15`, “mean fluorescence intensity” read 70.9 a.u.
For `2'F-ANA at 1 3 7 10 12 14 15`, “mean fluorescence intensity” read 77.3 a.u.
`2'F-ANA at 1 3 5 12`: “mean fluorescence intensity” 146 a.u.
For `2'F-ANA at 3 5 9 10 12 13 14`, “mean fluorescence intensity” read 54.6 a.u.
`2'F-ANA at 3 4 6 7 8 9 10 11 12 14` — result for “mean fluorescence intensity”: 156 a.u.

Sample 2
Target: RNA binding protein fox-1 homolog 2, RRM domain, GST-SBP tag (RBFOX2, Homo sapiens, UniProt O43251-10, residues 100-194)
Method: RNA Bind-n-Seq
Molecule type: RNA
Medium: in vitro
Tested at: 365 nM
Notes: natural RNA segment, single round, ends assumed
Relative to: no-protein control
Direction: higher = stronger binding
Target sequence (chain): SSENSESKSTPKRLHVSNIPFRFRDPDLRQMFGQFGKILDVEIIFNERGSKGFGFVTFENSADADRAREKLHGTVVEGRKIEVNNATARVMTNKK
For `GGGAGUUCUACAGUCCGACGAUCGGCAGCGCCUGCUCUUCCUUAACUCAGCCCAUCAUCUGAAAAUUCAGAAGUGAACCAAGGGUUAGACGCCAGAGGUUGGGCUUCUGUUAGAGUGGCUUCAAAACAUGAGCUGGAAUUCUCGGGUGCCAA`, “RBNS enrichment (R)” read 0.317.
For `GGGAGUUCUACAGUCCGACGAUCCAGCACAAAGUUUUAAUGUCAUUGAGAGGGGAAACAAAGGGAAAAGAAAGCCUGUCUGGAGAAGUGUGAUGCCCAAGAAGCACGGAAAGCUACGCCGGUGGAAUGUCAGUUGGAAUUCUCGGGUGCCAA`, “RBNS enrichment (R)” read 7.04.
`GGGAGUUCUACAGUCCGACGAUCAAAAAAAAAACUAGUGUAGUACUGAGUGGGGCAUUCACUGUUGAUCAAGGUUAACCUCUUUAGAAAAGAUUAGUAAAGGAGAUCCCGAAUGAUAGAAGAUAGAAAGACUAUGGAAUUCUCGGGUGCCAA`: “RBNS enrichment (R)” 0.605.
`GGGAGUUCUACAGUCCGACGAUCCUAGCCUUUUCUACACCCUCUUUUGAGUGUAGUUUGAUAUUUUGUAAUCAAAAGCUCAUUUCACAAGCAGAAAAAGGCGACAAGUUAAUUAAAGCAAGGAAAAGUGUCACUGGAAUUCUCGGGUGCCAA`: “RBNS enrichment (R)” 0.283.

Sample 3
Target: Histone acetyltransferase KAT6A, both winged helices, GST fusion (KAT6A, Homo sapiens, UniProt Q92794, residues 1-181)
Method: protein binding microarray
Molecule type: double-stranded DNA, one strand shown
Medium: in vitro
Tested at: not given
Notes: 8-mer, flanks averaged, mean of 2 arrays, mostly near background
Relative to: not given
Direction: higher = stronger binding
Residues (chain): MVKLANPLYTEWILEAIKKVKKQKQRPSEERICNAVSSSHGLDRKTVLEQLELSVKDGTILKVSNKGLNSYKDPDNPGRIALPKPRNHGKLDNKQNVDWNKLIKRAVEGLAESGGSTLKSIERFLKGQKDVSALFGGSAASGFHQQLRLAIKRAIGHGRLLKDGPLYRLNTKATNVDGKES
`GTAAGGCA` gave an E-score of -0.218.
The E-score of `CCCCCCAA` is reported as -0.157.
For `GAAACCTC`, the E-score was -0.0622.
`ATCACCCC` gave an E-score of -0.111.
With `AGCTGGTA` the E-score was -0.16.
`AGGCGTAG` gave an E-score of -0.0698.
For `CACGGCTC`, the E-score was 0.173.
With `ATTATATA` the E-score was -0.00915.

Mixed results
With `PhoQ, residues 284 288 289 292 302 303 SCKMEA` the fold induction was 25.6 (PhoP, residues 12 14 15 18 19 QWHVF (Escherichia coli, UniProt P23836); Sort-seq, item: YFP reporter; E. coli; PhoQ-PhoP variant library, together with: 10 µM Mg2+; relative to: high Mg2+ state, higher = stronger signaling).
